Measurements pooled from the literature.
Parts stem from different laboratories: compare values within a part only. Positions count from the first letter of the parent shown.

Study 1 — method: RNA Bind-n-Seq; form: RNA; matrix: in vitro; concentration: 365 nM; relative to: no-protein control; reading: higher = stronger binding
Target: RNA binding protein fox-1 homolog 2, RRM domain, GST-SBP tag (RBFOX2, Homo sapiens, UniProt O43251-10, residues 100-194)
Notes: natural RNA segment, single round, ends assumed
All sequences stand within: GGGAGUUCUACAGUCCGACGAUC … UGGAAUUCUCGGGUGCCAA
Target sequence (chain): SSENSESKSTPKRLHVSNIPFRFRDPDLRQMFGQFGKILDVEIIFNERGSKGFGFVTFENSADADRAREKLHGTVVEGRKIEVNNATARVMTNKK
Oligonucleotide	RBNS enrichment (R)
CUGGGACCUGCAUCUGUGCUGGGGCCAGGGACUCUCCCACGCACGAGCUAGUGAGUGGCACACCAGAGCCAUCUGCAGGGAAGGGCGUGGCGGGGAAAUGGCUGUGCGGU	3.31
AAUAGGCUGGCUACAUGAACACUGUCAGAAAUCCCAGACUUGCCCACAAGGAUAAUGCUGCAUUUUUCUGUCAGAGUCACACAUGUUUUUCUGGAGAGGUUAUUUCUGCA	0.676
CCUGAGGAUCGCAAAGUAUACACAUAUGUAGCAUAAAAUGCAUUCAGAAAUUUGAUUUAUUCUUGGACUGUACUCUUCGCAUGGACUGGGAAGUUCUUUUAAAUCAUACU	8.56
UCCUCAAGAUCUGGAAUAAAGCCAGGAGGAGGUGGAUGGAUGCCAUGGCGACUGGAAGACCAUUCCAACCUUGAAUCGUUACAGCGAUAGCAUAUCCUAUCCAACCAUAC	0.299
CAGGUCAGAGAUGUCCCCUGCCAUGCAGAGCAGGAAGCCUCAGCUGGGCCUGGAGUGUCCCUGCUCCAGCCCUGCCAGGGACAGGUUUCUCCCUGGAUACUCUUGGCCCA	0.218

Study 2 — method: protein-binding microarray; form: double-stranded DNA, one strand shown; matrix: in vitro; concentration: 250 nM; notes: 60-bp whole probe; added: salmon DNA 0.4 mg/ml; relative to: random background probes; reading: higher = stronger binding
Target: Interferon regulatory factor 7, full length, phosphomimetic (IRF7, Homo sapiens, UniProt Q92985, residues 1-503, S101K/S471D/S472D/S475D/S476D/S477D/S483D/S484D/S487D)
Construct (chain): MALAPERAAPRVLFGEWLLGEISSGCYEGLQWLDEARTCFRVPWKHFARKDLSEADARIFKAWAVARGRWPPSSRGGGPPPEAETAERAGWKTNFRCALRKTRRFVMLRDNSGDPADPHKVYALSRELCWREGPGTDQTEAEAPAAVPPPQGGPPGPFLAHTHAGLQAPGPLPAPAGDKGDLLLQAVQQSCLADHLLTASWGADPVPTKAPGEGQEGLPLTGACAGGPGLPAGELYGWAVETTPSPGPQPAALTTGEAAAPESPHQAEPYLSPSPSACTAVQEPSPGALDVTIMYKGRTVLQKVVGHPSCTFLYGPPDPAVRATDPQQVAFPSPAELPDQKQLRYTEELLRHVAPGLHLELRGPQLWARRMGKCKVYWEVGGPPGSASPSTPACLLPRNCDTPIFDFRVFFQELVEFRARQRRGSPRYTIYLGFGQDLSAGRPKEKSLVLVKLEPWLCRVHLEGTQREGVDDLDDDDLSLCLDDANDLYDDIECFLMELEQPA
Oligonucleotide	log fluorescence [z-score]
GCCTAGCACTGAGATATCAGTTTCGATTAGTGCTAGGTCTTGATTCGCTTGACGCTGCTG	8.12
GCCTAGCACTTAGGACGGGGTTTCGGTTAGTGCTAGGTCTTGATTCGCTTGACGCTGCTG	6.32
GCCTAGCACTATTTTTTCTGAACCATTTTGTGCTAGGTCTTGATTCGCTTGACGCTGCTG	1.17
GCCTAGCACTTAGGTTTCCTTGTCCTTTAGTGCTAGGTCTTGATTCGCTTGACGCTGCTG	1.26

Mixed results — CCNE1: CCNE1, cyclin fold, Cln2 fusion (human)
P1: CDC6 docking peptide (human); TLKGRRLVFDNQL; partner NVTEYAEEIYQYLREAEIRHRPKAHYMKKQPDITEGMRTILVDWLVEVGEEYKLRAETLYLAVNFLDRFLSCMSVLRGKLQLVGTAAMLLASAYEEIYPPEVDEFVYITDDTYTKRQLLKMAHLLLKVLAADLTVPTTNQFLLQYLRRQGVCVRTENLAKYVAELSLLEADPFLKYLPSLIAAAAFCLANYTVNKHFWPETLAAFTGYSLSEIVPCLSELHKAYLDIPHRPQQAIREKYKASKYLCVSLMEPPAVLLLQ
P2: E2F2 docking peptide (human); LPAKRKLDLEGIG; partner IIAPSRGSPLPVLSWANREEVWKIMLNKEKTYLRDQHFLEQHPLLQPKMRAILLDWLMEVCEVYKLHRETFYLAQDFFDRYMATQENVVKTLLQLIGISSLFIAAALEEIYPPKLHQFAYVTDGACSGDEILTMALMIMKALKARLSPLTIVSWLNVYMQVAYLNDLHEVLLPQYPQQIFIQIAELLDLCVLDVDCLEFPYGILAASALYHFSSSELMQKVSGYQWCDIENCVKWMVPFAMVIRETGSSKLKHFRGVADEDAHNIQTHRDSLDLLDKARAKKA
Substance	target	assay	system	conditions	how to read	quantity	value
P1 L7F	CCNA1, cyclin fold, Cln2 fusion (human)	yeast growth competition, sequencing	yeast	weak parent motif	relative to: not given, higher = stronger binding	normalised enrichment score	0.275
PhoQ, residues 284 288 289 292 302 303 SSLVEF	PhoP, residues 12 14 15 18 19 NNFVT (Escherichia coli, UniProt P23836)	Sort-seq, measured: YFP reporter	E. coli	PhoQ-PhoP variant library, added: 10 µM Mg2+	relative to: high Mg2+ state, higher = stronger signaling	fold induction	1.56
P2 G13A	CCNE1	yeast growth competition, sequencing	yeast	strong parent motif	relative to: not given, higher = stronger binding	normalised enrichment score	1.21
P2 K6A	CCNE1	yeast growth competition, sequencing	yeast	strong parent motif	relative to: not given, higher = stronger binding	normalised enrichment score	0.325

For quick reference, copied from above (study 2):
Oligonucleotide	log fluorescence [z-score]
GCCTAGCACTGAGATATCAGTTTCGATTAGTGCTAGGTCTTGATTCGCTTGACGCTGCTG	8.12
GCCTAGCACTTAGGACGGGGTTTCGGTTAGTGCTAGGTCTTGATTCGCTTGACGCTGCTG	6.32
